Published values from different studies.
Lines come from different studies, so protocols differ. ± marks the error that the study gave.

CSCC[C@@H]1NC(=O)[C@H](C(C)C)NC(=O)[C@H](CCCNC(=N)N)NC(=O)CNC(=O)[C@@H]2CCCN2C(=O)[C@@H](NC(=O)CNC(=O)[C@H](CO)NC(=O)CNC(=O)[C@H](CO)NC(=S)Nc2ccc(C[C@H]3CN(CC(=O)O)CCN(CC(=O)O)CCN3CC(=O)O)cc2)CSSC[C@@H](C(N)=O)NC(=O)[C@@H]2CCCN2C(=O)CNC(=O)[C@H](CCC(=O)O)NC(=O)[C@H](CC(=O)O)NC(=O)[C@H](CC(=O)O)NC(=O)CNC(=O)[C@H](CC(C)C)NC(=O)[C@H](Cc2c[nH]cn2)NC(=O)[C@H](CC(C)C)NC(=O)CNC(=O)[C@H](Cc2c[nH]cn2)NC1=O [copper-64 labelled]
clearance half-life (dynamic PET; CD rat, myocardial infarction, remote myocardium; intravenous, 18.5 MBq): 0.35 ± 0.0917 h

CC[C@H](C)[C@H](NC(=O)[C@H](C)NC(=O)[C@H](CCCCN)NC(=O)[C@H](CC(C)C)NC(=O)[C@@H](N)Cc1ccccc1)C(=O)N[C@@H](CCCCN)C(=O)N[C@@H](CCCCN)C(=O)N[C@@H](Cc1ccccc1)C(=O)NCC(=O)N[C@@H](CCCCN)C(=O)N[C@@H](CCC(=O)O)C(=O)N[C@@H](Cc1ccccc1)C(=O)N[C@@H](CCCCN)C(=O)N[C@@H](CCCCN)C(=O)N[C@H](C(=O)NCC(=O)N[C@@H](C)C(=O)N[C@@H](CCCCN)C(=O)N[C@@H](CC(C)C)C(=O)N[C@@H](CCCCN)C(=O)O)[C@@H](C)CC
hemolysis (human red blood cells; 64 mg/L, 1 h, mean of replicates): 0.551%

CC[C@H](C)[C@H](NC(=O)[C@H](CCCCN)NC(=O)CNC(=O)[C@H](CC(C)C)NC(=O)[C@H](Cc1ccccc1)NC(=O)[C@H](CCCCN)NC(=O)[C@H](CO)NC(=O)[C@H](Cc1ccccc1)NC(=O)[C@H](Cc1c[nH]c2ccccc12)NC(=O)[C@H](CCC(N)=O)NC(=O)[C@@H](NC(=O)[C@H](Cc1ccccc1)NC(=O)CCCCCNC(=O)CN1CCN(CC(=O)O)CCN(CC(=O)O)CCN(CC(=O)O)CC1)C(C)C)C(=O)N[C@@H](CCC(=O)O)C(=O)N1CCC[C@H]1C(=O)N[C@@H](CC(=O)O)C(=O)N[C@H](C(=O)N[C@@H](CO)C(=O)N[C@@H](CCC(N)=O)C(=O)N[C@H](C(=O)N[C@@H](CCC(N)=O)C(=O)N[C@@H](CC(=O)O)C(=O)N1CCC[C@H]1C(=O)N[C@@H](CC(N)=O)C(=O)N[C@@H](CC(=O)O)C(=O)N[C@@H](CCC(N)=O)C(=O)N[C@@H](Cc1ccc(O)cc1)C(=O)N[C@@H](CCC(=O)O)C(=O)N1CCC[C@H]1C(=O)N[C@@H](Cc1ccccc1)C(=O)O)C(C)C)C(C)C [copper-64 labelled]
SUVmean (dynamic PET; mouse both sexes, CT26 tumour, untreated, tumour; intravenous, 100 µCi/mouse, 870 s): 0.66 SUV

CC(C)=CCC/C(C)=C\CCn1cc(CC(C)(P(=O)(O)O)P(=O)(O)O)nn1
concentration (mouse CD-1, bile; intravenous, 0.3 mg/kg, 8 h): 6570 ± 2590 ng/mL

Cc1cc(-c2ccc3ccccc3c2)nnc1NCCN1CCN(C)CC1
compound remaining (metabolic stability; rat, liver microsomes; 30 min): 80.8%

CC(C)[C@@H]1NC(=O)CNC(=O)[C@H](CC(N)=O)NC(=O)[C@H](CCCNC(=N)N)NC(=O)[C@H](Cc2ccc(O)cc2)NC(=O)[C@H](C(C)C)NC(=O)[C@@H](NC(=O)[C@@H](NC(=O)[C@H](CC(N)=O)NC(=O)[C@H](Cc2c[nH]c3ccccc23)NC(=O)[C@H](C)NC(=O)[C@H](Cc2ccccc2)NC(=O)CNC(=O)[C@H](CCCCN)NC(=O)[C@H](Cc2ccccc2)NC(=O)[C@H](Cc2ccccc2)NC(=O)[C@H](CCCCN)NC(=O)OCC2c3ccccc3-c3ccccc32)C(C)C)CSSC[C@@H](C(=O)N[C@@H](Cc2c[nH]cn2)C(=O)N[C@@H](CCCNC(=N)N)C(=O)N[C@@H](CCCNC(=N)N)C(=O)N[C@@H](C)C(=O)N[C@@H](CC(N)=O)C(N)=O)NC(=O)[C@H](C(C)C)NC(=O)[C@H](CCCNC(=N)N)NC1=O
eosinophils (ICR mouse, blood; intramammary, 10 mg/kg, day 5, 3 d dosing): 2.49 ± 0.26%

CC(=O)NCCCC[C@@H]1NC(=O)[C@H](Cc2c[nH]c3c(C)cccc23)NC(=O)[C@H]([C@@H](C)O)NC(=O)[C@H](CC(N)=O)NC(=O)[C@@H](NC(C)=O)C(C)(C)SSC(C)(C)[C@@H](C(=O)N[C@@H](Cc2ccc(OCCN)cc2)C(=O)N[C@@H](Cc2ccc3ccccc3c2)C(=O)NC2(C(=O)N[C@@H](CCC(=O)O)C(=O)N[C@@H](CC(N)=O)C(=O)N[C@@H](Cc3cccnc3)C(=O)N(C)CC(N)=O)CCOCC2)NC1=O
apparent clearance CL/F (human; oral, 100 mg multiple doses, day 10): 6320 ± 2500 L/h

O=C1NC2(CC2)COc2ncc(F)cc2[C@H]2COCCN2c2ccn3ncc1c3n2
organ-to-brain weight ratio (Sprague-Dawley rat, female, liver; oral, 5 mg/kg/day, 4 weeks dosing, end of recovery): 418 ± 48.7%

O=C(CN1C(=O)C2(CCN(C(=O)c3ccc4[nH]ncc4n3)CC2)c2c(Br)cccc21)NCC(F)(F)F
half-life (male C57BL/6 mouse, plasma; oral, 10 mg/kg): 2.2 h

CCCCCCCCCCCCCCCC(=O)N[C@@H](CCC(=O)NCCOCCOCCC(=O)NCCOCCOCCC(=O)NCCCC[C@H](NC(=O)[C@H](CC(=O)O)NC(=O)[C@H](CC(C)C)NC(=O)[C@H](Cc1ccc(O)cc1)NC(=O)[C@H](CCCCN)NC(=O)[C@H](CO)NC(=O)[C@H](Cc1ccc(O)cc1)NC(=O)[C@H](CC(=O)O)NC(=O)[C@H](CO)NC(=O)[C@@H](NC(=O)[C@H](Cc1ccccc1)NC(=O)[C@@H](NC(=O)CNC(=O)[C@H](CCC(N)=O)NC(=O)[C@@H](CO)NC(=O)[C@@H](N)Cc1c[nH]cn1)[C@@H](C)O)[C@@H](C)O)C(=O)N[C@@H](CCCNC(=N)N)C(=O)N[C@@H](CCCNC(=N)N)C(=O)N[C@@H](C)C(=O)N[C@@H](CCC(N)=O)C(=O)N[C@@H](CC(=O)O)C(=O)N[C@@H](Cc1ccccc1)C(=O)N[C@H](C(=O)N[C@@H](CCC(N)=O)C(=O)N[C@@H](Cc1c[nH]c2ccccc12)C(=O)N[C@@H](CC(C)C)C(=O)N[C@@H](CC(C)C)C(=O)N[C@@H](CC(N)=O)C(=O)N[C@H](C(=O)NCC(=O)NCC(=O)N1CCC[C@H]1C(=O)N[C@@H](CO)C(=O)N[C@@H](CO)C(=O)NCC(=O)N[C@@H](C)C(=O)N1CCC[C@H]1C(=O)N1CCC[C@H]1C(=O)N1CCC[C@H]1C(=O)N[C@@H](CO)C(N)=O)[C@@H](C)O)C(C)C)C(=O)O
AUC(0-inf) (rhesus monkey, plasma; subcutaneous, 5 µg/kg, single dose): 11.8 ng·h/mL

CC(C)C[C@H](NC(=O)[C@H](Cc1ccc(O)cc1)NC(=O)[C@H](C)NC(=O)[C@@H](NC(=O)[C@H](CC(C)C)NC(=O)[C@H](C)NC(=O)[C@H](C)NC(=O)[C@H](CCCCN)NC(=O)CNC(=O)[C@@H](NC(=O)[C@H](Cc1c[nH]cn1)NC(=O)[C@H](CCCCN)NC(=O)CNC(=O)[C@@H](NC(=O)[C@H](Cc1c[nH]cn1)NC(=O)[C@@H](NC(=O)[C@H](C)NC(=O)[C@H](CCCCN)NC(=O)[C@H](CCCCN)NC(=O)[C@H](Cc1ccccc1)NC(=O)[C@H](Cc1c[nH]c2ccccc12)NC(=O)[C@H](CCCCN)NC(=O)CNC(=O)[C@H](Cc1c[nH]c2ccccc12)NC(=O)[C@@H](N)CCCNC(=N)N)[C@@H](C)O)C(C)C)C(C)C)[C@@H](C)O)C(N)=O
acute toxic concentration (zebrafish embryos 4 hpf, E3 medium; 1 h): 5 µM

CC(C)[C@H](NC(=O)[C@@H](NC(=O)[C@H](CCCNC(=N)N)NC(=O)[C@H](CCCNC(=N)N)NC(=O)[C@H](CCCNC(=N)N)NC(=O)[C@H](CCC(N)=O)NC(=O)[C@H](CCCNC(=N)N)NC(=O)[C@H](CCCNC(=N)N)NC(=O)[C@H](CCCCN)NC(=O)[C@H](CCCCN)NC(=O)[C@H](CCCNC(=N)N)NC(=O)CN)[C@@H](C)O)C(=O)N[C@H](C(=O)N[C@@H](CO)C(=O)N1CCC[C@H]1C(=O)O)[C@@H](C)O
organ weight (ICR mice, female, spleen; intranasal, 5 mg/kg daily, 4 weeks): 0.074 ± 0.012 g

CC[C@H](C)[C@H](NC(=O)[C@H](Cc1c[nH]c2ccccc12)NC(=O)c1ccccc1)C(=O)N[C@H](C(=O)N[C@@H](Cc1ccc(O)cc1)C(=O)N[C@@H](CCCCN)C(=O)N[C@@H](Cc1c[nH]c2ccccc12)C(=O)N[C@H](CCCNC(=N)N)C(=O)N[C@@H](CCCNC(=N)N)C(=O)N[C@@H](CCCCN)C(=O)N[C@H](C(=O)N[C@H](C(=O)N[C@@H](CCCNC(=N)N)C(=O)N[C@@H](Cc1ccc(O)cc1)C(=O)N[C@@H](Cc1c[nH]c2ccccc12)C(=O)N[C@H](C(=O)NCC(=O)N[C@@H](CCCCN)C(=O)N[C@@H](CCCNC(=N)N)C(N)=O)[C@@H](C)O)C(C)C)C(C)C)C(C)C
melting temperature (circular dichroism; phosphate buffer; 30 µM, pH 6.5): 55.1 °C

Some of these lines once more:
CC(C)[C@H](NC(=O)[C@@H](NC(=O)[C@H](CCCNC(=N)N)NC(=O)[C@H](CCCNC(=N)N)NC(=O)[C@H](CCCNC(=N)N)NC(=O)[C@H](CCC(N)=O)NC(=O)[C@H](CCCNC(=N)N)NC(=O)[C@H](CCCNC(=N)N)NC(=O)[C@H](CCCCN)NC(=O)[C@H](CCCCN)NC(=O)[C@H](CCCNC(=N)N)NC(=O)CN)[C@@H](C)O)C(=O)N[C@H](C(=O)N[C@@H](CO)C(=O)N1CCC[C@H]1C(=O)O)[C@@H](C)O
organ weight (ICR mice, female, spleen; intranasal, 5 mg/kg daily, 4 weeks): 0.074 ± 0.012 g
